Measurements gathered from unrelated publications.
Each numbered part is a random draw from the data of one study; scales do not carry over between parts. “And” joins repeats or separate records; there may be more than shown.
Chain of UniProt P46934 (whole entry, looked up): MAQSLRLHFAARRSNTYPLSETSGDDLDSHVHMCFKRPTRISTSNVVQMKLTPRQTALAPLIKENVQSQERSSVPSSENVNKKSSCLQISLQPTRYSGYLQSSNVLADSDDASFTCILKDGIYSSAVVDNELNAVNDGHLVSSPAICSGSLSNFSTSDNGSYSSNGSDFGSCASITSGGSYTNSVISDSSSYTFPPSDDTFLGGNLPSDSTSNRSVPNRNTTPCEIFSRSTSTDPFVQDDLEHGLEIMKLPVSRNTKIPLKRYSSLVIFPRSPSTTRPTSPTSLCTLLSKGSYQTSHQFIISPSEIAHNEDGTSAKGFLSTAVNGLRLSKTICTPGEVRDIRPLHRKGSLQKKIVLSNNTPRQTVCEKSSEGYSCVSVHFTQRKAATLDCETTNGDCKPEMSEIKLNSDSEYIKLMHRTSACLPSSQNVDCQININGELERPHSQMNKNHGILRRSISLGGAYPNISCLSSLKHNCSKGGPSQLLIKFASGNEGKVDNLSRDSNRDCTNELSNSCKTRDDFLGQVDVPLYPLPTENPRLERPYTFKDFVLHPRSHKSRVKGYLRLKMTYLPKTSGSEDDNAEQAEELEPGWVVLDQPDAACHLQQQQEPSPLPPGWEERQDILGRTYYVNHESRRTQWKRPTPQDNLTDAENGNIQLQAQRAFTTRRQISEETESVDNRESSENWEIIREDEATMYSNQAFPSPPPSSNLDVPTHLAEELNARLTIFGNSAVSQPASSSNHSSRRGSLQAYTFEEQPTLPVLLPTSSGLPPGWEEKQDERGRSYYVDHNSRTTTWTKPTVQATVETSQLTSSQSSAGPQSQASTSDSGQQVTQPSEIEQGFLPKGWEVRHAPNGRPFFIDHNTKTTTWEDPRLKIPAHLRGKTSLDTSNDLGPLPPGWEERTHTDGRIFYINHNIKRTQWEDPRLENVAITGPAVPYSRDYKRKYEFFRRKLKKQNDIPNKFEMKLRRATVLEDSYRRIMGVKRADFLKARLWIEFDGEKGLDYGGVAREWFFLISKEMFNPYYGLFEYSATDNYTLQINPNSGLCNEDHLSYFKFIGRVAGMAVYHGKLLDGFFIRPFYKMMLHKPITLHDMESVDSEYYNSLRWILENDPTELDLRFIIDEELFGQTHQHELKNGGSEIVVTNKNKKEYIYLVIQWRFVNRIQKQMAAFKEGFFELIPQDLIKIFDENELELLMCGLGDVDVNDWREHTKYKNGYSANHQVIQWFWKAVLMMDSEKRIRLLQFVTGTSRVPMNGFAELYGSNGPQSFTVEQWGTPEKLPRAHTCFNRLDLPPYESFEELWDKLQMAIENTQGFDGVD

Series 1
SMILES: CC(C)(C)n1nc(-c2ccc(Cl)cc2)c2c(N)ncnc21
Cell line: L929
Observed: necroptosis protection
Technique: CCK-8
Together with: TNF-α-induced
setting	viability [%]
0.313 µM	44.6
1.667 µM	42.2
0.078 µM	31.7

Series 2
Structure (SMILES): Cn1cc(-c2cccc(CN3CCC4(CC3)COc3c4ccc4c3CN([C@H]3CCC(=O)NC3=O)C4=O)c2)cn1
Host: Crbn I391V mouse, MC-38 tumour
setting	body weight change
oral, 30 mg/kg once daily, day 22	0.4% and 1.5% and -3.6% and 5.1% and 2.1%
30 mg/kg, day 34, together with: anti-LAG3 antibody 10 mg/kg weekly	6.6% and -2.8% and 2.1%
oral, 30 mg/kg once daily, day 14	0.8% and 6.2% and -2.1% and 1% and -0.5%
30 mg/kg, day 39, together with: anti-LAG3 antibody 10 mg/kg weekly	9.5%
oral, 30 mg/kg once daily, day 3	-5% and -3.8% and 0% and -0.9% and 0.9%
oral, daily, 30 mg/kg, day 1, anti-PD1 combination study	0%
30 mg/kg, day 21, together with: anti-LAG3 antibody 10 mg/kg weekly	0.4% and 9.3% and -3.4% and -1.2% and -1% and 6.6% and -0.4%
30 mg/kg, day 1, together with: anti-LAG3 antibody 10 mg/kg weekly	0%
30 mg/kg, day 13, together with: anti-LAG3 antibody 10 mg/kg weekly	0.8% and 1.1% and 6.1% and -0.8%
oral, daily, 30 mg/kg, day 22, anti-PD1 combination study	7.7% and -4.7% and 7.6% and -1%
30 mg/kg, day 48, together with: anti-LAG3 antibody 10 mg/kg weekly	11.9%
30 mg/kg, day 44, together with: anti-LAG3 antibody 10 mg/kg weekly	9.9%

Series 3
SMILES: C=CCN1C(=O)C(O)(C(=O)O)Oc2cc(F)ccc21 (stereo not drawn)
organism	assay	test system	setting	inhibition
Setaria viridis	fresh weight	–	150 g ai/ha, pre-emergence treatment	51.2% and 48.2% and 50.6%
Arabidopsis thaliana	hypocotyl length	Col-0, seedlings	6.25 µg/mL	2.06%
Echinochloa crus-galli	fresh weight	–	150 g ai/ha, post-emergence treatment	40.1% and 44.7% and 39.3%

Series 4
SMILES: N=C(N)NCCCCCCN1CCC23c4c5ccc(O)c4OC2c2nc4ccccc4cc2CC3(O)C1C5 (stereo not drawn)
Technique: modified Racine scale
Host: C57BL/6J mice, male
Route: intracerebroventricular
Dose: 100 nmol
Reading: direction not given
setting	seizure score
30 min	0
65 min	0
5 min	0
20 min	0

Mixed results
SMILES	tested on	assay	test system	setting	how to read	quantity	value
COc1cc(C(=O)OCCCN2CCCN(CCCOC(=O)c3cc(OC)c(OC)c(OCc4ccc([N+](=O)[O-])cc4)c3)CC2)cc(OC)c1OC	–	–	mouse CD-1 male, trigeminal ganglion	subcutaneous, 30 mg/kg, 12 h	–	concentration	11.5 ng/mL
CCOC(=O)/C=C/CN(CCCCN1c2ccccc2CCc2ccc(Cl)cc21)Cc1ccccc1.O=C(O)/C=C\C(=O)O	E3 ubiquitin-protein ligase NEDD4, HECT domain (Homo sapiens, UniProt P46934)	enzyme activity, inhibitor, Ub-TR-FRET	HECT domain	0.04572 µM	higher = more chain formation	ubiquitin chain formation AUC	105000 a.u. and 96200 a.u. and 104000 a.u. and 96700 a.u. and 102000 a.u. and 94800 a.u.
